Experimental data pooled from the literature.
± marks the error that the study gave.
Organism: Trypanosoma brucei rhodesiense

N=C(N)c1ccc(-c2ccc(-c3ccc(C(=N)N)o3)o2)cn1 — cured mice (STIB900, mice, acute infection model; intraperitoneal, 5 mg/kg for 4 days, parasite-free at 60 days): 0%
O=C1NC(=S)S/C1=C\c1cn(Cc2ccc(F)cc2)c2ccc([N+](=O)[O-])cc12 — IC50 (trypomastigotes, IL1501): > 63 µM
O=[N+]([O-])c1ncn(CCCCN2CCN(Cc3ccc(C(F)(F)F)cc3)CC2)n1 — IC50 (growth; STIB900; bloodstream trypomastigotes): 0.5 to 6 µM
N=C(N)Nc1ccc(-c2ccc(-c3ccc(NC(=N)N)cn3)cc2)nc1 — mean survival time (STIB900, mice; intraperitoneal, 20 mg/kg daily for 4 days): 20.2 days
O=C1CSC(=S)N1/N=C/c1cn(Cc2ccc(F)cc2)c2ccc([N+](=O)[O-])cc12 — IC50 (trypomastigotes, IL1501): 58.1 ± 3.84 µM
N=C(N)c1ccc(-c2ccc(-c3ccc(C(=N)N)s3)o2)cc1 — cured mice (STIB900, mice, acute infection model; intraperitoneal, 5 mg/kg for 4 days, parasite-free at 60 days): 0%
O=[N+]([O-])c1ncn(CCCN2CCN(c3ccncc3)CC2)n1 — IC50 (growth; STIB900 bloodstream trypomastigotes): 0.5 to 6 µM
O=C1CSC(=S)N1/N=C/c1cn(Cc2ccccc2)c2ccc([N+](=O)[O-])cc12 — IC50 (trypomastigotes, IL1501): > 60 µM
N=C(N)c1ccc(-c2ccc(-c3ccc(C(=N)N)s3)s2)cn1 — cured mice (STIB900, mice, acute infection model; intraperitoneal, 5 mg/kg for 4 days, parasite-free at 60 days): 0%
